Results pooled from the literature.
Each line is one published result; not all experiments were run side by side. Numbers after ± are the reported error.

CCNc1cc2c(cc1C)C1(c3cc(C)c(NCC)cc3O2)c2ccccc2C(=O)N1N=Cc1c[c-]c(-c2ccccn2)cc1.Cc1c(C)c(-c2ccc(-c3ccccc3)cc2)[c-](C)c1C.[Cl-].[Ir+3]
apoptotic cells (A549; annexin V/PI; 3 x IC50, 24 h): 96.7%

COc1cc(CNC(=O)C[C@H](C)CCC=C(C)C)ccc1OCc1cn(-c2cccc(C(F)(F)F)c2)nn1
growth percent (SK-MEL-2 melanoma cells; SRB; 10 µM, 48 h): 111%

FC(F)(F)c1ccnc(-c2cc(C(F)(F)F)ccn2)c1.FC(F)(F)c1ccnc(-c2cc(C(F)(F)F)ccn2)c1.[Cl-].[Cl-].[Ru+2].c1csc(-c2ccc(-c3ccc(-c4ccc(-c5nc6c7cccnc7c7ncccc7c6[nH]5)s4)s3)s2)c1
mean phototherapeutic index (SK-MEL-28; cell viability; hypoxia 1% O2, together with: red light; relative to: dark EC50 over light EC50): 21

Cc1ccc(C)c2sc(NC(=O)C3CCN(S(=O)(=O)c4ccc(F)cc4)CC3)nc12
efferocytosis (wild-type mouse BMDM; flow cytometry; 10 µM, 6 h pretreatment, together with: apoptotic Jurkat cells 45 min; relative to: vehicle): increased

COc1cc(C(=O)c2[nH]c(N)nc2-c2cccs2)cc(OC)c1OC
dead cells (HeLa cells; propidium iodide staining; 200 nM, 24 h): 74%

CC(C)Cc1ccc(C(C)C(=O)[O][Pt]([NH2])([NH2])([Cl])([Cl])[O]C(=O)C(Cl)Cl)cc1 (stereo not shown)
resistance factor (C13 and 2008; cytotoxicity, MTT; relative to: IC50 C13 over IC50 2008): 3

CC(=O)OC[C@H]1O[C@@H](Sc2sc(C(=O)c3ccc(Br)cc3)c(N)c2-c2nc3ccccc3s2)[C@H](OC(C)=O)[C@@H](OC(C)=O)[C@@H]1OC(C)=O
growth (SK-MEL-2; SRB; 10 µM, 48 h; relative to: untreated): 106%

COc1cc(CNC(=O)C[C@H](C)CCC=C(C)C)ccc1OCc1cn(-c2ccccc2F)nn1
growth percent (U-251 CNS cancer cells; SRB; 10 µM, 48 h): 61.6%

CC[C@@]12CCc3c(c4ccccc4n3C)CCN(C[C@H](O)[C@H]1O)C2
inhibition (BV-2; NO production; 3 µM, 1 h, 24 h stimulation, together with: LPS 800 ng/mL; relative to: LPS control): 44.4 ± 4.7%

O=Cc1c(O)ccc2ccccc12
log2 fold change (HUVEC; RNA sequencing, measured: ERFE; 75 µM, 24 h; relative to: DMSO): 4.67

CCN(CC)CC(=O)Nc1cccc(-n2cc(-c3ccc4ccc(-c5cn(-c6cccc(NC(=O)CN(CC)CC)c6)nn5)cc4c3)nn2)c1
HRE reporter activity decrease (RCC4; luciferase reporter; 5 x IC50, normoxia): 59%

COc1cc(CNC(=O)C[C@H](C)CCC=C(C)C)ccc1OCc1cn(-c2ccc(Cl)c(Cl)c2)nn1
growth percent (SF-539 CNS cancer cells; SRB; 10 µM, 48 h): 5.3%

[Ru+2].c1ccc(-c2ccc3c(n2)c2ncccc2c2nc4cc5ccccc5cc4nc32)nc1.c1ccc(-c2ccc3c(n2)c2ncccc2c2nc4cc5ccccc5cc4nc32)nc1
phototherapeutic index (M2 murine macrophages; relative to: dark EC50 over light EC50): > 36

COC(=O)c1ccccc1-c1c2ccc(=O)cc-2oc2cc(OCCCCC[P+](c3ccc(C)cc3)(c3ccc(C)cc3)c3ccc(C)cc3)ccc12
fluorescence ratio (HeLa cells; confocal microscopy; mitochondria; 100 nM; relative to: MitoTracker Deep Red): 0.361 ± 0.058

COc1cc(CNC(=O)C[C@H](C)CCC=C(C)C)ccc1O
growth percent (SF-539 CNS cancer cells; SRB; 10 µM, 48 h): 93.6%

CC[C@H](C)[C@H](NC(=O)[C@H](Cc1c[nH]cn1)NC(=O)[C@H](Cc1ccccc1)NC(=O)[C@@H](NC(=O)[C@H](C)NC(=O)[C@H](CC(N)=O)NC(=O)[C@H](Cc1c[nH]c2ccccc12)NC(=O)[C@@H](NC(=O)CNC(=O)CNC(=O)[C@H](CCCNC(=N)N)NC(=O)[C@H](CCCNC(=N)N)NC(=O)[C@H](CCCNC(=N)N)NC(=O)[C@H](CCC(N)=O)NC(=O)[C@H](CCCNC(=N)N)NC(=O)[C@H](CCCNC(=N)N)NC(=O)[C@H](CCCCN)NC(=O)[C@H](CCCCN)NC(=O)[C@H](CCCNC(=N)N)NC(=O)CNC(=O)[C@@H](N)Cc1ccc(O)cc1)C(C)C)[C@@H](C)O)C(=O)N[C@@H](Cc1c[nH]c2ccccc12)C(=O)N[C@@H](Cc1c[nH]cn1)C(=O)N[C@@H](CC(=O)O)C(N)=O
small Htt103Q aggregates per cell (HeLa expressing CFP-Htt103Q; 10 µM): decreased

COc1cc(/C=C/C(=O)O)ccc1O
inhibition (BV-2; TNF-α release, inhibitor, ELISA; 5 µM, LPS-stimulated): 68.3%

CC1(C)C(=O)N=C2C1=C(O)C(=O)c1ccccc12
effective single dose (HEK-293T; H4K20me1 depletion, inhibitor, western blot; sustained 3 days): 5 µM

COc1cc(CNC(=O)C[C@H](C)CCC=C(C)C)ccc1OCc1cn(-c2ccccc2[N+](=O)[O-])nn1
growth percent (SK-MEL-2 melanoma cells; SRB; 10 µM, 48 h): 66.3%

C#CCCCCNC(=O)c1ccc(N(C(=O)C=C)c2ccc(Br)cc2)cc1
number of hyperreactive proteins (H460 cell lysate; MS-ABPP; 100 µM; reactivity ratio below 2): 447 proteins

CC(=O)N[C@H](C(=O)N[C@H](C(=O)N[C@@H](CCCNC(=N)N)C(=O)N1Cc2ccccc2C[C@H]1C(=O)N[C@@H](Cc1ccccc1)C(N)=O)C1CCCCC1)C(C)C
cytokine level (MBP-specific BC-3 T cells; Bio-Plex multiplex, measured: Eotaxin; 200 µg/mL, 24 h, together with: MBP87-99 antigen): < 23.5 pg/mL

O=C1Nc2ccc(F)cc2C1=Cc1c(Cl)[nH]c2c1ccc1ccccc12
TGI (breast cancer subpanel of NCI-60; 48 h): 6.76 µM

CC/C=C\C/C=C\C/C=C\C/C=C\C/C=C\C/C=C\CCC(=O)Nc1ccn(C2OC(CO)C(O)C2(F)F)c(=O)n1 (stereo not shown)
GI50 (SK-MEL-2; cell growth or viability, SRB): 13.2 µM

COc1cc(CNC(=O)C[C@H](C)CCC=C(C)C)ccc1OCc1cn(-c2cccc(Cl)c2)nn1
growth percent (SK-MEL-2 melanoma cells; SRB; 10 µM, 48 h): 95.5%

CCCCCCCCN(CCC(=O)Nc1ccccc1)C(=O)c1ccccn1
phospho-H2AX level (HGPS fibroblasts; 2 µM, 10 days): decreased

O=C1NCC(Cc2ccccc2)N(CC2CCCN2CC(CC2CCCCC2)N2CC(Cc3ccc(O)cc3)N(CCc3ccccc3)C(=O)C2=O)C1=O (stereo not shown)
increase in dual-inactive cells (WM 266-4; MAPK and PI3K activation, flow cytometry; concentration not given, 48 h; relative to: untreated): ~10%

COc1cc(CNC(=O)C[C@H](C)CCC=C(C)C)ccc1OCc1cn(-c2ccc(Br)cc2)nn1
growth percent (SF-539 CNS cancer cells; SRB; 10 µM, 48 h): 51.2%

CC(=O)OC[C@H]1O[C@@H](Sc2sc(C(=O)c3ccc(C)cc3)c(N)c2-c2nc3ccccc3s2)[C@H](OC(C)=O)[C@@H](OC(C)=O)[C@H]1OC(C)=O
growth (BT-549; SRB; 10 µM, 48 h; relative to: untreated): 82.7%

COc1ccc([C@@H]2CC(=O)c3c(O)cc(O[C@@H]4O[C@H](CO[C@@H]5O[C@@H](C)[C@H](O)[C@@H](O)[C@H]5O)[C@@H](O)[C@H](O)[C@H]4O)cc3O2)cc1O
gap closure (A549; cell migration, scratch; 50 µg/mL, 0 h): 0%

C=C(C)[C@@H]1CC[C@]2(C(=O)OCO/N=[N+](\[O-])N3CCCC3)CC[C@]3(C)[C@H](CC[C@@H]4[C@@]5(C)CC[C@H](OC(C)=O)C(C)(C)[C@@H]5CC[C@]43C)[C@@H]12
cells in S phase (B16-F10; PI flow cytometry; 0.25 µM): 40.9%

C[N+]1(CC(=O)OC2CCCCCCCCCCC2)CCCCC1
ED20 (LNCaP expressing AR-V7; cell viability, CellTiter Blue; 96 h): 3.5 µM

COc1cc(CNC(=O)C[C@H](C)CCC=C(C)C)ccc1OCc1cn(-c2cccc([N+](=O)[O-])c2)nn1
growth percent (SF-539 CNS cancer cells; SRB; 10 µM, 48 h): 69.8%

COc1ccc(OC)c(Nc2nc(NCCCO)c3ccccc3n2)c1
foci-positive cells (BCR-ABL1+ BRCA1-deficient 32Dcl3; measured: GFP-RAD52 foci; 2.5 µM, together with: cisplatin): 19 ± 0.4%

COc1ccc(NC(=O)CCc2nc3cc(Cl)ccc3[nH]c2=O)cc1
BAX level (unspecified cells; concentration not given, unit not given; relative to: untreated control): 4.3

COc1ccc(C2=Nn3c(NN=C4C(=O)N(Cc5ccccc5)c5ccc(Cl)cc54)nnc3SC2)cc1
inhibition (IGROV-1; cell growth or viability, SRB; 10 µM): 33%

CC(C)CC(CC(C)C)NC(=O)[C@H](Cc1c[nH]cn1)NC(=O)CNC(=O)[C@@H](NC(=O)[C@H](C)NC(=O)[C@H](Cc1c[nH]c2ccccc12)NC(=O)[C@H](CCC(N)=O)NC(=O)[C@@H](Cc1ccccc1)NC(=O)COCC(=O)Nc1ccc(CNC(=O)CN2CCN(CC(=O)O)CCN(CC(=O)O)CCN(CC(=O)O)CC2)cc1)C(C)C [lutetium-177 labelled]
cell density (PC-3, DMSO vehicle pretreated; SRB assay after 6 days; 50 MBq, 1 h, 37 °C; relative to: medium-treated): 98.9 ± 9.01%

CC(=C(c1ccc(O)cc1)c1ccc(Cl)cc1)c1ccc(Cl)cc1
GI50 (Hs-578T; cell growth or viability, SRB): 0.6 µM

For quick reference, copied from above:
O=C1NCC(Cc2ccccc2)N(CC2CCCN2CC(CC2CCCCC2)N2CC(Cc3ccc(O)cc3)N(CCc3ccccc3)C(=O)C2=O)C1=O (stereo not shown)
increase in dual-inactive cells (WM 266-4; MAPK and PI3K activation, flow cytometry; concentration not given, 48 h; relative to: untreated): ~10%

COc1cc(CNC(=O)C[C@H](C)CCC=C(C)C)ccc1OCc1cn(-c2ccc(Br)cc2)nn1
growth percent (SF-539 CNS cancer cells; SRB; 10 µM, 48 h): 51.2%

CC(=O)OC[C@H]1O[C@@H](Sc2sc(C(=O)c3ccc(C)cc3)c(N)c2-c2nc3ccccc3s2)[C@H](OC(C)=O)[C@@H](OC(C)=O)[C@H]1OC(C)=O
growth (BT-549; SRB; 10 µM, 48 h; relative to: untreated): 82.7%
